# Published values from different studies.
# Numbered parts are unrelated; each lists some results of a single study. Substitutions count along the parent as printed.

# Sample 1
# Target: ABI1, truncated, D143A, DHFR fusion (Arabidopsis thaliana)
# Method: DHFR PCA, deep sequencing
# Matrix: yeast
# Notes: methotrexate growth selection, single substitutions
# Added: (+)-ABA 0.39 µM
# Baseline: wild-type fitted maximum
# Direction: higher = stronger binding
# Starting sequence: PYL1, truncated, DHFR fusion (Arabidopsis thaliana); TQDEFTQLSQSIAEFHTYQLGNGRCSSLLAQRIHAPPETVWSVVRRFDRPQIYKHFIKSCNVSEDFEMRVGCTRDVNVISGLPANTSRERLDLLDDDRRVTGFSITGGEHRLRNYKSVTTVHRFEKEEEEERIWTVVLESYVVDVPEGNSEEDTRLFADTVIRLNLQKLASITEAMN
Substitution,relative binding score [%]
T73A,2.54
I172L,29.9
D95P,-11
E89K,-3.08
A158N,-0.248
V78E,8.81
K54V,-15.4
S42H,6.04
V70L,4.66
D153I,-24
L91P,-13.7
P83T,7.93
I52M,44.7
Q167G,22.6
V137A,0.494
P50W,-1.53
P83E,0.946
I33K,-5.87
A13L,34.4
F157E,-3.52
T160E,0.721

# Sample 2
# Target: Histone acetyltransferase KAT6A, both winged helices, GST fusion (KAT6A, Homo sapiens, UniProt Q92794, residues 1-181)
# Method: protein binding microarray
# Molecule type: double-stranded DNA, one strand shown
# Matrix: in vitro
# Tested at: not given
# Notes: 8-mer, flanks averaged, mean of 2 arrays, mostly near background
# Baseline: not given
# Direction: higher = stronger binding
# Construct (chain): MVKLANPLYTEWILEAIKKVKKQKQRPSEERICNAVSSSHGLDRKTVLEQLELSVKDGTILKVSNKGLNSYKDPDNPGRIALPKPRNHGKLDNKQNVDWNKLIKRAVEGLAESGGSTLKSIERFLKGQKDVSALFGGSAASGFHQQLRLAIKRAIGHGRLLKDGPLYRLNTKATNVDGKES
Strand,E-score
ATGAAAAT,-0.118
ACCCCGGC,0.176
GGTTGCTA,-0.0361
AGCTCTGC,-0.141
AAGTGGAC,-0.136
AACTTGAC,-0.111
AAGGTAAA,-0.106
ACGACGAA,-0.0979
ATTAATAC,0.0566
GAGCCAGC,-0.0519
GCCGGAAC,0.254
AGCATCTG,-0.181
CAGGTCAG,-0.0736
ATGGCCCC,-0.0594
ACTGATGA,-0.191
ATGCCCCG,0.0333
GAAGTCCC,0.0164
CAATTCTC,-0.118
TCATGTAA,0.0485
AACAGTGG,-0.223
AGTGTGAG,-0.241
ACGTTAAC,-0.057
CGGCAAAG,0.205
CCTTAATC,-0.0835
ATCCTGCG,0.0722

# Sample 3
# Target: Fragile X messenger ribonucleoprotein 1, C-terminal low-complexity region (Fmr1, Mus musculus, UniProt P35922)
# Method: RNA Bind-n-Seq
# Molecule type: RNA
# Matrix: in vitro
# Tested at: 200 nM
# Notes: whole 134-nt RNA, ends assumed
# Added: 150 mM KCl
# Baseline: input library
# Direction: higher = stronger binding
Strand,log2 enrichment
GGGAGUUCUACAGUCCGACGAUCCCUCAAGUCCUGUGCUACACAUCGUAUGUACCGAAUCGGGAAGGAAGGAAGGAAAGUAUUAUGUUACGCCGUUCGGAUCUGCACUUCCAGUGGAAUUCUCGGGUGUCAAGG,0.184
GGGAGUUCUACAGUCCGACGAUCUCCUGUGCUACACAUCGUAUGUACCGAAUCGGGAAAAAAAGGGAAAAAAAGGGAAAGGGAAAGUAUUAUGUUACGCCGUUCGGAUCUGCAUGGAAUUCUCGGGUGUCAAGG,-0.127
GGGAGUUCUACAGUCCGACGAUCAUGAAGAUGAAGAAGAGGAUGAUGAGGACGAGGAUGACGACGACGACGAAGAUGAUGAAGAUGAUGAUGAUGAAGAUGAUGAGGAGGAGGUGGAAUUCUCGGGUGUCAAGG,0.201
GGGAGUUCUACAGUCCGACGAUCCACAGACAACACGCACCCACACAGACACAGAGGGAAGGGGUUGAAAUGGGGACAGGGUGCACAGCAGGGCGGGGUAGGACCCCAGCCCCUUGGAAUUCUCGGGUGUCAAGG,0.641
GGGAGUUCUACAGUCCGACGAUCGUCCUGUGCUACACAUCGUAUGUACCGAAUCGGGGUGGGGUUUUUGGGGAAAAAGGGGAAAGUAUUAUGUUACGCCGUUCGGAUCUGCACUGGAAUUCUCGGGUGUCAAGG,0.483
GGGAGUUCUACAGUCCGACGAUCUCCUGUGCUACACAUCGUAUGUACCGAAUCGGGUUUUUUUGGGAAAGGGUUUUUUUGGGAAAGUAUUAUGUUACGCCGUUCGGAUCUGCAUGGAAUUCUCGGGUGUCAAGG,-0.107
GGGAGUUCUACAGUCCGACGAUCUAACUUUAGAGGAGGAUCUGAUGGAUAUGGCAGUGGACGUGGAUUUGGGGAUGGCUAUAAUGGGUAUGGAGGGGGACCUGGAGGUGGCAAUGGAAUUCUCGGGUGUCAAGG,0.28
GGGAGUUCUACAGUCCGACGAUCCUCAAGUCCUGUGCUACACAUCGUAUGUACCGAAUCGGGUUGGUUGGGUUGGGGAAAGUAUUAUGUUACGCCGUUCGGAUCUGCACUUCCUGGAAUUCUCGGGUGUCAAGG,0.885
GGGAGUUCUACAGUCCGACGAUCUGGGAGGUGGAUUUUGUUUAUUUUUUUAGCUCAUUUCCAGGGGUGGGAAUUUUUUUUUAAUAUGUGUCCUGAAUAAAGUUGUUUUUGAAAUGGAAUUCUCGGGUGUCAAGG,0.241

# Sample 4
# Target: MAFK, bZIP domain (human)
# Method: DHFR protein complementation
# Matrix: yeast
# Notes: single substitutions, most at no-binding floor
# Baseline: wild-type JUN-FOS pair
# Direction: higher = stronger binding
# Starting sequence: JUN, bZIP domain (human); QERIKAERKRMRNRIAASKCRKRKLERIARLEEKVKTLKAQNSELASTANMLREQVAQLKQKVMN; partner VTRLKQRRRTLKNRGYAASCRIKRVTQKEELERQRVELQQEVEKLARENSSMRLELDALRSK
Substitution,binding fitness
L45H,-1.48 natural log
R53F,-1.49 natural log
L52A,-1.55 natural log
R30N,-1.58 natural log
R53T,-1.48 natural log
R30M,-1.48 natural log
I28F,-1.4 natural log
K34E,-1.57 natural log
V56C,-1.51 natural log
T37A,-1.43 natural log
E54I,-1.48 natural log
A57W,-1.52 natural log
R30S,-1.44 natural log
L38I,-1.39 natural log
R30V,-1.38 natural log
E32T,-1.49 natural log
A29K,-1.26 natural log

# Sample 5
# Target: Prothrombin, mature alpha-thrombin (F2, Homo sapiens, UniProt P00734)
# Method: aptamer microarray, sandwich
# Molecule type: DNA with 2'F-ANA
# Matrix: in vitro
# Tested at: 200 nM
# Notes: whole 15-mer aptamer, many near background
# Added: Cy3 exosite-II aptamer, 400 nM
# Direction: higher = stronger binding
# Strand: GGTTGGTGTGGTTGG
Modification,mean fluorescence intensity
2'F-ANA at 1 2 3 4 7 8 9 12 13 14,67.2 a.u.
2'F-ANA at 1 2 4 7 8 9 11 13 15,93.8 a.u.
2'F-ANA at 1 2 5 8 11 13 14,53.7 a.u.
2'F-ANA at 2 4 5 6 7 8 10 11 12,51.2 a.u.
2'F-ANA at 2 3 5 6 8 11,86.6 a.u.
2'F-ANA at 1 8 10 12,69.8 a.u.
2'F-ANA at 1 3 5 6 7 8 11,62.2 a.u.
2'F-ANA at 1 2 4 5 10 14 15,43.7 a.u.
2'F-ANA at 3 5 6 12 13,222 a.u.
2'F-ANA at 2 3 4 5 7 10 15,90.7 a.u.
2'F-ANA at 3 5 7 10 12 14,53.8 a.u.
2'F-ANA at 2 3 4 5 7 10 14 15,48.3 a.u.
2'F-ANA at 4 5 8 11 12 13 14 15,48.1 a.u.
2'F-ANA at 1 3 5 9 11 14,45.5 a.u.
2'F-ANA at 1 2 3 5 6 7 8 10 13 14,51.7 a.u.
2'F-ANA at 1 5 7 11 13 14 15,59 a.u.
2'F-ANA at 6 9 11 12 13 14,166 a.u.
2'F-ANA at 4 5 6 7 8 9 12,159 a.u.
2'F-ANA at 1 2 9 10 12 13,67.6 a.u.
2'F-ANA at 6 8 9 13 14 15,153 a.u.
2'F-ANA at 1 3 4 6 8 9 10 11 13 14 15,51.5 a.u.
